Assay results collected from several papers.
Compare with care: the assays were run in different laboratories. Values joined by “and” are separate records of one study, mostly repeats; a detail may differ. ± gives the spread as reported.
TOP2A: DNA topoisomerase 2-alpha (TOP2A, Homo sapiens, UniProt P11388)
GUK1: GUK1 (Homo sapiens, UniProt Q16774)
SLC6A6 Y138A: Sodium- and chloride-dependent taurine transporter (SLC6A6, Homo sapiens, UniProt P31641, Y138A)
ZBTB11/CRBN: ZBTB11/CRBN (Homo sapiens, UniProt O95625+Q96SW2)
PHO85: Negative regulator of the PHO system (PHO85, Candida albicans, UniProt Q9HGY5)
T1: RNA aptamer; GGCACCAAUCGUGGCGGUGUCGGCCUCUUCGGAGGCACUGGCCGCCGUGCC

| Compound | target | test | system | conditions | scale | endpoint | result |
| --- | --- | --- | --- | --- | --- | --- | --- |
| CN1CCC[C@H]1c1cccnc1 | Chrnd/Chrna1/Chrne (Mus musculus, UniProt P02716+P04756+P20782, G173E) | – | – | – | – | koff | 1230 s⁻¹ |
| CC[C@@H]1[C@H](F)C(=O)N[C@@H]1COc1nccc2cc(C(N)=O)c(OC)cc12 | STK38 (Homo sapiens, UniProt Q15208) | ATP-site probe binding, ActivX profiling | THP-1 cell lysate | 0.01 mM, Lys2 site | – | inhibition | -3.8% |
| COc1ccc(CCC(C)N2CCc3cc(OC)c(OC)cc3C2)cc1 (centres unmarked) | Tmem97 (Rattus norvegicus, UniProt Q5U3Y7) | binding | – | – | baseline: Ki sigma-1 over Ki sigma-2 | selectivity ratio | 82 |
| C=C1C(=O)O[C@@H]2C[C@@]3(C)CCCC(=C)[C@@H]3C[C@H]12 | NR5A2 (Homo sapiens, UniProt O00482) | reporter gene, Gal4 hybrid reporter | – | 10 µM | baseline: vehicle | activation | 0.7 fold |
| O=c1nc(SCc2cc(F)cc(C(F)(F)F)c2)nc(SCc2csc3ccc(Cl)cc23)[nH]1 | TOP2A | DNA cleavage | – | 31.25 µM, replicate 2 | – | linear DNA | 4.03% |
| Nc1ncnc2c1ncn2C1CCCC1 | Inositol-tetrakisphosphate 1-kinase (Homo sapiens, UniProt Q13572) | binding, microscale thermophoresis | – | highest compound concentration, together with: increasing ATP | baseline: no ATP | fold increase in apparent Kd | ~40 fold |
| C[C@H](CCC(C)(C)O)[C@H]1CC[C@H]2[C@@H]3CC=C4C[C@@](C)(O)CC[C@]4(C)[C@H]3CC[C@]12C | Glutamate NMDA receptor; GRIN1/GRIN2B (GRIN1/GRIN2B, Homo sapiens, UniProt Q05586+Q13224) | ion current, positive modulator, automated patch clamp | HEK293 (stable line) | together with: glutamate 0.8 µM and glycine | baseline: current without compound | Emax | 244% |
| [O-][S+]1CCCCS1 (centres unmarked) | SOD1 (Homo sapiens, UniProt P00441, G94A) | intact protein LC-MS | SOD1 G93A transgenic mice, whole blood | oral, 150 mg/kg, 1 h, mean of two mice | – | target engagement | 25 % cross-linked dimer |
| CCC(=O)NS(=O)(=O)c1ccc(-c2c(-c3ccccc3)noc2C)cc1 | NR1D1 (Homo sapiens, UniProt P20393) | reporter gene, Gal4 hybrid reporter | – | 50 µM | baseline: vehicle | activation | 0.64 fold |
| O=c1nc(SCc2cc(F)cc(C(F)(F)F)c2)nc(SCc2ccc3sccc3c2)[nH]1 | TOP2A | DNA relaxation | – | 7.8 µM, replicate 2 | – | relaxed DNA | 99.3% |
| O=C(CCCc1ccccc1)C(=O)NCCc1ccc(Oc2ccc(C(F)(F)F)cn2)cc1 | PREP (Homo sapiens, UniProt P48147) | inhibitor, FP-biotin chemoproteomics, item: PPCE | HepG2 | concentration not given | baseline: DMSO, lower = stronger inhibition | probe-enriched protein abundance | 252000 a.u. |
| NCCCC[C@H](N)C(=O)Nc1ccc2ccccc2c1 | rat neuron-specific aminopeptidase | substrate | – | – | – | Km | 5 µM |
| N=c1n(CCN2CCCCC2)c2ccccc2n1CC(O)c1cccc(Br)c1 (centres unmarked) | CatSper channel complex (Homo sapiens, UniProt Q7RTX7+Q86XQ3+Q8NEC5+Q96P56) | ion current, whole-cell patch clamp | human sperm | 10 µM, at -80 mV | – | inward current density | -15 ± 3 pA/pF |
| Nc1ncnc2c1ncn2[C@@H]1O[C@H](COP(=O)(O)OP(=O)(O)O)[C@@H](O)[C@H]1O | GUK1 | binding, isothermal titration calorimetry | – | molar ratio 0.6998, fitted curve | – | ΔH | -2.02 kcal/mol |
| CC(=O)N[C@H](C(=O)N1C[C@H](O)C[C@H]1C(=O)NCc1ccc(-c2scnc2C)cc1)C(C)(C)SCCCCCCNC(=O)C[C@@H]1N=C(c2ccc(Cl)cc2)c2c(sc(C)c2C)-n2c(C)nnc21 | BRD2/VHL, BD2; with VCB (Homo sapiens, UniProt P25440+P40337) | ITC | – | 25 °C, PROTAC:Brd2^BD2 | baseline: Kd binary over Kd ternary | cooperativity | 4.1 |
| O=C(COP(=O)(O)O)[C@@H](O)[C@H](O)[C@H](O)COP(=O)(O)O | Beta-actin-like protein 2 (ACTBL2, Homo sapiens, UniProt Q562R1) | thermal proteome profiling, item: ACTBL2 | HepG2 cell lysate | concentration not given, 57 over 37 °C | baseline: compound over control | thermal stability ratio | 0.588 and 0.583 and 0.923 |
| CC(C)CC[C@@H](O)[C@@H](C)[C@H]1CC[C@H]2[C@@H]3CC=C4C[C@@H](O)CC[C@]4(C)[C@H]3CC[C@]12C | CYP11A1 (Homo sapiens, UniProt P05108) | substrate binding | – | together with: adrenodoxin 40-fold excess | baseline: without adrenodoxin | Kd decrease | 2.1 fold and 2 fold |
| O=S(=O)(O)C1CCNCC1 | SLC6A6 Y138A | binding, microscale thermophoresis | – | 500 µM, room temperature, together with: 50 nM labelled protein | higher = more binding | normalised MST signal | 0.0425 |
| C#Cc1cc(-c2cc(Nc3nc(N[C@@H](C)c4ccc(F)cn4)ncc3Cl)n[nH]2)ccc1C=O | CDK4 (Homo sapiens, UniProt P11802) | enzyme activity, inhibitor | – | 0.2 µM | – | inhibition | 5.39% |
| NC(=O)c1ccc[n+]([C@@H]2O[C@H](COP(=O)(O)O)[C@@H](O)[C@H]2O)c1 | ALDH-137 | enzyme activity, cofactor, NMNH formation | – | apparent Km, together with: hexanal | – | Km | 37600 ± 3600 µM |
| Nc1nc2c(ncn2[C@@H]2O[C@@H]3COP(=O)(O)O[C@H]4[C@@H](O)[C@H](n5cnc6c(=O)[nH]c(N)nc65)O[C@@H]4COP(=O)(O)O[C@H]3[C@H]2O)c(=O)[nH]1 | Cell cycle histidine kinase CckA, DHp-CA domains (Caulobacter vibrioides, UniProt Q9X688) | binding, ITC | – | 12 °C, together with: ADP 5 mM | – | -TΔS | -6.7 kcal/mol |
| CN(CCO)c1ccc(/C=C(\C#N)c2ccc(C#N)cc2)cc1 | T1, RNA aptamer | fluorescence titration, Hill fit | – | apparent | – | Kd | 821 nM |

| Compound | target | test | system | conditions | scale | endpoint | result |
| --- | --- | --- | --- | --- | --- | --- | --- |
| O=C(CCCCCCC(=O)Nc1ccccc1)NO | HDAC8 (Homo sapiens, UniProt Q9BY41) | ITC | Tris-HCl buffer | concentration not given, 288 K | – | binding stoichiometry | 0.9 |
| CCC(C)(NCCc1ccc(Cl)c(Cl)c1)c1cccc(NC2=CC(=O)N(C3CCC(=O)NC3=O)C2=O)c1 (centres unmarked) | ZBTB11/CRBN | protein degradation, degrader, HiBiT luminescence | MOLT-4 | – | – | Dmax | 60% |
| c1ccc(-c2n[nH]cc2-c2ccnc3ccccc23)nc1 | PHO85 | kinase binding, competitor, MIB/MS competition, item: PHO85 | Candida albicans cell lysate | 10 µM | baseline: DMSO | log2 fold change | 1.53 |
| Nc1ccc(C(=O)O)cc1 | BEST1, with wild-type BEST1 (Homo sapiens, UniProt O76090, D302A) | ion current, whole-cell patch clamp | HEK293 co-expressing mutant and wild-type | concentration not given, voltage 100 mV | – | current density | 10.6 pA/pF and 22.4 pA/pF and 40.1 pA/pF and 23.4 pA/pF and 13.9 pA/pF and 18.4 pA/pF |
| COc1cc(-c2cc(C(C)=O)n3ccccc23)cc(OC)c1Cn1ccnc1 | Bromodomain-containing protein 3, BD2 (BRD3, Homo sapiens, UniProt Q15059) | – | – | – | – | ΔTm | 4.8 °C |
| Nc1ncnc2c1ncn2[C@@H]1O[C@H](COP(=O)(O)OP(=O)(O)O)[C@@H](O)[C@H]1O | CKMT1A (Homo sapiens, UniProt P12532, D359N) | substrate, Kinase-Glo luminescence | – | pH 7.0, reverse reaction, D321N mutant, together with: second substrate in excess | – | kcat | 12 ± 5 s⁻¹ |
| CCCCc1nc2c(s1)c(N)nc1ccccc12 | TLR7 (Homo sapiens, UniProt Q9NYK1) | reporter gene, agonist, NF-κB reporter | HEK-Blue TLR7 | – | – | EC50 | inactive |
| c1ccc(C(NCc2cccnc2)(c2ccccc2)c2ccccc2)cc1 | KCNQ1 (Homo sapiens, UniProt P51787) | ion current, inhibitor, whole-cell patch clamp | tsA201 | current at end of depolarization, no correction | – | Hill coefficient | 0.64 |
| Nc1ncnc2c1ncn2[C@@H]1O[C@H](COP(=O)(O)CP(=O)(O)OP(=O)(O)O)[C@@H](O)[C@H]1O | P2X purinoceptor 1 (P2RX1, Homo sapiens, UniProt P51575, E122A) | calcium influx | – | 100 nM | baseline: ionomycin response | calcium influx | 0% |
| C=CC(=O)N1CCC(COCC(=O)N2CCN(c3nc(-c4cnc(N)nc4C(F)F)nc(N4CCOC[C@@H]4C)n3)CC2)CC1 | CSF1R (Homo sapiens, UniProt P07333) | KINOMEscan | – | 1 µM | – | remaining binding | 86% |
| CC[C@@H](C)[C@@H](NC(=O)[C@@H](Cc1ccc(O)cc1)NC(=O)[C@H]1CCCN1C(=O)[C@@H](CCCNC(=N)N)NC(=O)[C@H](N)Cc1c[nH]cn1)C(=O)N[C@H](C)C(=O)N[C@H](Cc1c[nH]cn1)C(=O)N[C@H](CCCNC(=N)N)C(=O)N[C@@H](C(=O)N[C@H](Cc1ccc(O)cc1)C(=O)N[C@H](CO)C(=O)N[C@H](Cc1ccccc1)C(N)=O)C(C)C | Transferrin receptor protein 1 (Tfrc, Mus musculus, UniProt Q62351) | flow cytometry | RAW264.7 | 2 h, pH 7.4, unit not given | baseline: 0 h | surface TFRC expression | 0.991 |
| Nc1nc2c(ncn2[C@@H]2O[C@H](COP(=O)(O)O)[C@@H](O)[C@H]2O)c(=O)[nH]1 | GUK1 | substrate, NADH-coupled | – | NaCl 10 mM, together with: ATP 2.5 mM | – | Km | 45.5 µM |
| Cc1c(Cl)c(=O)oc2cc(OCCCCSC#N)ccc12 | CA12 (Homo sapiens, UniProt O43570) | stopped-flow CO2 hydration | – | – | baseline: Ki CA I over Ki CA XII | selectivity ratio | > 1690 |
| Cc1n[nH]c2ccc(-c3cc(OC[C@@H](N)Cc4ccccc4)cnc3-c3ccoc3)cc12 | PHO85 | kinase binding, competitor, MIB/MS competition, item: PHO85 | Candida albicans cell lysate | 100 nM | baseline: DMSO | log2 fold change | 0.238 |
| O=c1cc(-c2ccc([N+](=O)[O-])cc2)[nH]c2c(-c3ccc(Cl)cc3)c(Cc3ccccc3)nn12 | 2-(3-amino-3-carboxypropyl)histidine synthase subunit 2 (DPH2, Homo sapiens, UniProt Q9BQC3) | thermal stability, binder, thermal proteome profiling | RD, cell lysate | 50 µM, 0.5% DMSO | baseline: DMSO vehicle | melting temperature shift | 3.5 °C |
| Cc1cc2nc3c(=O)[nH]c(=O)nc-3n(C[C@H](O)[C@H](O)[C@H](O)COP(=O)(O)O)c2cc1C | NADH-dependent FMN reductase SfnF (sfnF, Pseudomonas fluorescens, UniProt Q3K9A2) | surface plasmon resonance | – | – | – | koff | 0.211 s⁻¹ |
| CCS(=O)(=O)N1CC(CC#N)(n2cc(-c3ncnc4[nH]ccc34)cn2)C1 | ORM1 (Homo sapiens, UniProt P02763) | fluorescence quenching | – | 293 K | – | Gibbs free energy | -6.12 kcal/mol |
| Cc1ccc(NC2=CC(=O)N(C3CCC(=O)NC3=O)C2=O)cc1C(C)(C)NCCc1ccc(C(F)(F)F)c(Cl)c1 (centres unmarked) | ZBTB11/CRBN | protein degradation, degrader, HiBiT luminescence | MOLT-4 | – | – | Dmax | 27% |
| NC(N)=NCCC[C@H](N)C(=O)Nc1ccc2ccccc2c1 | rat neuron-specific aminopeptidase | substrate | – | – | – | Km | 5 µM |
| CCC(C)(NCCc1cc(C(F)(F)F)cc(C(F)(F)F)c1)c1cccc(NC2=CC(=O)N(C3CCC(=O)NC3=O)C2=O)c1 (centres unmarked) | ZBTB11/CRBN | protein degradation, degrader, HiBiT luminescence | MOLT-4 | – | – | Dmax | 62% |
| O=C(O)c1ccc(Nc2ncc3c(n2)-c2ccc(Cl)cc2C(c2c(F)cccc2F)=NC3)cc1 | MST3(h) | kinase activity | – | 1 µM | – | remaining activity | 107% |
| NCCS(=O)(=O)O | SLC6A6 Y138A | binding, microscale thermophoresis | – | 1 mM, room temperature, together with: 50 nM labelled protein | higher = more binding | normalised MST signal | 0.0116 |

Excerpt of the above:
| Compound | target | test | system | conditions | scale | endpoint | result |
| --- | --- | --- | --- | --- | --- | --- | --- |
| C=C1C(=O)O[C@@H]2C[C@@]3(C)CCCC(=C)[C@@H]3C[C@H]12 | NR5A2 (Homo sapiens, UniProt O00482) | reporter gene, Gal4 hybrid reporter | – | 10 µM | baseline: vehicle | activation | 0.7 fold |
| O=c1nc(SCc2cc(F)cc(C(F)(F)F)c2)nc(SCc2csc3ccc(Cl)cc23)[nH]1 | TOP2A | DNA cleavage | – | 31.25 µM, replicate 2 | – | linear DNA | 4.03% |
| Nc1ncnc2c1ncn2C1CCCC1 | Inositol-tetrakisphosphate 1-kinase (Homo sapiens, UniProt Q13572) | binding, microscale thermophoresis | – | highest compound concentration, together with: increasing ATP | baseline: no ATP | fold increase in apparent Kd | ~40 fold |
